Assay results from different studies.
Every numbered part comes from another study and shows a few of its results, in no order. Values joined by “and” are separate records of one study, mostly repeats; a detail may differ.
UniProt O60331, sequence (whole entry, looked up): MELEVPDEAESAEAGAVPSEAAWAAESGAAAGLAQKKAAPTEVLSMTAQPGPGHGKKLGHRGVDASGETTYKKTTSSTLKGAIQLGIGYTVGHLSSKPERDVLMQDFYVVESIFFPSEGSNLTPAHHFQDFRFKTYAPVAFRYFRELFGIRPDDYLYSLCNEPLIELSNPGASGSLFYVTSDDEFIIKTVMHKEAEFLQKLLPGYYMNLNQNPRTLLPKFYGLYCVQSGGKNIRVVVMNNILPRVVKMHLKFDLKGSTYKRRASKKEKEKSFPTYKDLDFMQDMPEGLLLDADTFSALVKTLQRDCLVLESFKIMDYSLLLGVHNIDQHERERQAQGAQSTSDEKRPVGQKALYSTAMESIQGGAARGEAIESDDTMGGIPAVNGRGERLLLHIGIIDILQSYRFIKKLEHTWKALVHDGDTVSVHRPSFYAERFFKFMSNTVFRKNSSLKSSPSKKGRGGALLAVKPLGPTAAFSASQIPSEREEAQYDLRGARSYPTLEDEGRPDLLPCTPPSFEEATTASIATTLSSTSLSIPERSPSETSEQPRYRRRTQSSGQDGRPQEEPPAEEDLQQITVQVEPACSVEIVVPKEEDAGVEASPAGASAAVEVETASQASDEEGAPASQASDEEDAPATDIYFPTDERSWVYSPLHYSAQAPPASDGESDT
UniProt Q8TD19, sequence (whole entry, looked up): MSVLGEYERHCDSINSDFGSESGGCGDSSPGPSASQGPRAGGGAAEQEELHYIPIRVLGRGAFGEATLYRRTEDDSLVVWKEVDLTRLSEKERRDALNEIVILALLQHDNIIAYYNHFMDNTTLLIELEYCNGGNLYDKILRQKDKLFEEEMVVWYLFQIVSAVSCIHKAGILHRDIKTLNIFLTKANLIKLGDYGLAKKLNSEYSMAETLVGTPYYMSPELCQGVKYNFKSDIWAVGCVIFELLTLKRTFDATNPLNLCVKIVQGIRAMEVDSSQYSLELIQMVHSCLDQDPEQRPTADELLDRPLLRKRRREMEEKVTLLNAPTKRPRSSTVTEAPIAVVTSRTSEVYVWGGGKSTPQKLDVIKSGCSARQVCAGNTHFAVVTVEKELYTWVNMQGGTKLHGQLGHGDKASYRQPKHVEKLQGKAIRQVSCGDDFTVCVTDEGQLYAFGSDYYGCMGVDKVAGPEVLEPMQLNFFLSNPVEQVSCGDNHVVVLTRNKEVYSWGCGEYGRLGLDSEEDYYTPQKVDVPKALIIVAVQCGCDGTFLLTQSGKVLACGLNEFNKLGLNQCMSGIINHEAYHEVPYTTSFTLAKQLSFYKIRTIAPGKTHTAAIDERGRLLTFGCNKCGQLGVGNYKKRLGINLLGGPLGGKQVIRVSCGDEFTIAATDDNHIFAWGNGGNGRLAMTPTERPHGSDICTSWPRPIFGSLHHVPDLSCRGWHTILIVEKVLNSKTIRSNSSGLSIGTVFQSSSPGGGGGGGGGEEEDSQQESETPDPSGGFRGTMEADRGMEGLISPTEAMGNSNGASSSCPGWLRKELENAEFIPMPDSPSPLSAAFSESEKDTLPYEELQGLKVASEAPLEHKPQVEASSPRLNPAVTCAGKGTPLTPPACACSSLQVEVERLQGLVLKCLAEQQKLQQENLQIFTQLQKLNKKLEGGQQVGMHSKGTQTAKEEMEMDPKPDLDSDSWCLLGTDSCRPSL
UniProt P36897, sequence (whole entry, looked up): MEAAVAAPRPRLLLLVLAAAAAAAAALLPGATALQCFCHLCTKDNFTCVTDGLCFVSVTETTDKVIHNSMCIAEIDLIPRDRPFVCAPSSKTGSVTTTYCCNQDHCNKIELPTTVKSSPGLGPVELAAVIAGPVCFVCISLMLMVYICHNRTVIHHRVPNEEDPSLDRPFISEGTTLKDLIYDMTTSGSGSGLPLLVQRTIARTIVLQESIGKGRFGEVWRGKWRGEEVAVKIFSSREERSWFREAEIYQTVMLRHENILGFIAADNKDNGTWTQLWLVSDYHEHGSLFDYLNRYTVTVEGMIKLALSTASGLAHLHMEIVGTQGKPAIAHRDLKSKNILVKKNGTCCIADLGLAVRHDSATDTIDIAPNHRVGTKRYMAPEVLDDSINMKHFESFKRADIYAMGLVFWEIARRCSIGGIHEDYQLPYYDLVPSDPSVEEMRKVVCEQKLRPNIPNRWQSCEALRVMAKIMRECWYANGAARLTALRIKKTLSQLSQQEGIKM
UniProt P29323, sequence (whole entry, looked up): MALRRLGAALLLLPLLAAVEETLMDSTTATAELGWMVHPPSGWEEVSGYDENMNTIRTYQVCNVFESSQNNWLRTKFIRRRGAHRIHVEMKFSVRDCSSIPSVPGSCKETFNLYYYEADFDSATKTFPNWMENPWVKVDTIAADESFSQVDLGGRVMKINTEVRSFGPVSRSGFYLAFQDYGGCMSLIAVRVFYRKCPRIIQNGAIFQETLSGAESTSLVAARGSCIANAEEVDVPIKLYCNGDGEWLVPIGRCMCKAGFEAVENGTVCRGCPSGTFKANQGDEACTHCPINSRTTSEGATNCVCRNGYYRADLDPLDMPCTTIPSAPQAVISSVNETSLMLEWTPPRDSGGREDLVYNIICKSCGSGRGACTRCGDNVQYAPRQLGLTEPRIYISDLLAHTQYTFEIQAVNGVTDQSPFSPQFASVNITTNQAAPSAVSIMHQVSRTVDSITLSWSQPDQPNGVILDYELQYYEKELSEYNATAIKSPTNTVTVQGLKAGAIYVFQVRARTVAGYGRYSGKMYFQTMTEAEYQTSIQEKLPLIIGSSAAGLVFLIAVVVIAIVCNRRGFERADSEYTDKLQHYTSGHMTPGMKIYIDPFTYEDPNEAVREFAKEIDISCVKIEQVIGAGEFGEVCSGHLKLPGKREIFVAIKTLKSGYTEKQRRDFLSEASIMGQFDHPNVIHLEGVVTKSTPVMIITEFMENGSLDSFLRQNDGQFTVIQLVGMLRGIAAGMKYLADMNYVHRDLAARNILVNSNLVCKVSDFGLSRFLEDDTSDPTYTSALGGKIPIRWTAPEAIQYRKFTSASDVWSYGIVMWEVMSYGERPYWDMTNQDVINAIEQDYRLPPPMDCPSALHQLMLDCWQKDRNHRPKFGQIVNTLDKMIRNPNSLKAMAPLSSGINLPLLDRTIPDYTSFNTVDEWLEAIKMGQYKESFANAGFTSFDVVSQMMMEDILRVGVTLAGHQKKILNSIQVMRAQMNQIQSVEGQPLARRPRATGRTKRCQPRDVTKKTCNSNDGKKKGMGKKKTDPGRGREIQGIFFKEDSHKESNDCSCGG
UniProt Q96GD4, sequence (whole entry, looked up): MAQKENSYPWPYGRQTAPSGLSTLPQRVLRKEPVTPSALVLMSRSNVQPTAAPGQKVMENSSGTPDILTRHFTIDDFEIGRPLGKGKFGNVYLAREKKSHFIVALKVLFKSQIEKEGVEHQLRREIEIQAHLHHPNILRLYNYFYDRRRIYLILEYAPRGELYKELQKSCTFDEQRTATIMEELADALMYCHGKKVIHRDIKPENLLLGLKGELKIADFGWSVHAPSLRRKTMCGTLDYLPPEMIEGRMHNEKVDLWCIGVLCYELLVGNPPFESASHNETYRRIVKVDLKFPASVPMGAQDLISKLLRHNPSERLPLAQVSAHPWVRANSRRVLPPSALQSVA

Study 1
Compound: CC[C@@]1(c2cccc(-c3c(F)cncc3OC)c2)C2=C(Nc3n[nH]cc31)[C@H](F)C(C)(C)CC2=O (single isomer, unassigned)
Concentration: 1 µM
target	observed	method	baseline	remaining binding
EPHA2 (Homo sapiens, UniProt P29317)	binding	competition with immobilised ligand	–	100%
TGFBR1 (Homo sapiens, UniProt P36897)	kinase binding	KINOMEscan	DMSO control	97%
EPHA5 (Homo sapiens, UniProt P54756)	kinase binding	KINOMEscan	DMSO control	70%
CIT (Homo sapiens, UniProt O14578)	binding	competition with immobilised ligand	–	96%
STK33 (Homo sapiens, UniProt Q9BYT3)	binding	competition with immobilised ligand	–	100%
LCK (Homo sapiens, UniProt P06239)	kinase binding	KINOMEscan	DMSO control	97%
SBK3 (Homo sapiens, UniProt P0C264)	kinase binding	KINOMEscan	DMSO control	100%
NEK9 (Homo sapiens, UniProt Q8TD19)	kinase binding	KINOMEscan	DMSO control	93%
EPHB2 (Homo sapiens, UniProt P29323)	binding	competition with immobilised ligand	–	100%
PIP5K1C (Homo sapiens, UniProt O60331)	binding	competition with immobilised ligand	–	100%
MYLK (Homo sapiens, UniProt Q15746)	kinase binding	KINOMEscan	DMSO control	92%
Aurora kinase B (AURKB, Homo sapiens, UniProt Q96GD4)	binding	competition with immobilised ligand	–	62%
FLT3 ITD, human	–	KINOMEscan	–	93%
PAK6 (Homo sapiens, UniProt Q9NQU5)	binding	competition with immobilised ligand	–	99%
AKT2 (Homo sapiens, UniProt P31751)	kinase binding	KINOMEscan	DMSO control	100%
MAST1 (Homo sapiens, UniProt Q9Y2H9)	binding	competition with immobilised ligand	–	100%
CDK17 (Homo sapiens, UniProt Q00537)	binding	competition with immobilised ligand	–	18%

Study 2
SMILES: C[C@@H]1CN(c2ccc(-c3cc(C(=O)NCCOCCOCCOCCOCCNC(=O)/C=C/c4[nH]cc(C(=O)N[C@@H](CC(N)=O)c5ccc(F)c(Cl)c5)c4-c4ccc(Cl)cc4F)ccc3F)cc2NC(=O)c2c[nH]c(=O)cc2C(F)(F)F)C[C@H](C)N1C
Observed: thermal unfolding
Method: differential scanning fluorimetry
Concentration: 5.5 µM
Direction: higher = more unfolded
DCAF1: DDB1- and CUL4-associated factor 1 (DCAF1, Homo sapiens, UniProt Q9Y4B6)
UniProt Q9Y4B6, sequence (whole entry, looked up): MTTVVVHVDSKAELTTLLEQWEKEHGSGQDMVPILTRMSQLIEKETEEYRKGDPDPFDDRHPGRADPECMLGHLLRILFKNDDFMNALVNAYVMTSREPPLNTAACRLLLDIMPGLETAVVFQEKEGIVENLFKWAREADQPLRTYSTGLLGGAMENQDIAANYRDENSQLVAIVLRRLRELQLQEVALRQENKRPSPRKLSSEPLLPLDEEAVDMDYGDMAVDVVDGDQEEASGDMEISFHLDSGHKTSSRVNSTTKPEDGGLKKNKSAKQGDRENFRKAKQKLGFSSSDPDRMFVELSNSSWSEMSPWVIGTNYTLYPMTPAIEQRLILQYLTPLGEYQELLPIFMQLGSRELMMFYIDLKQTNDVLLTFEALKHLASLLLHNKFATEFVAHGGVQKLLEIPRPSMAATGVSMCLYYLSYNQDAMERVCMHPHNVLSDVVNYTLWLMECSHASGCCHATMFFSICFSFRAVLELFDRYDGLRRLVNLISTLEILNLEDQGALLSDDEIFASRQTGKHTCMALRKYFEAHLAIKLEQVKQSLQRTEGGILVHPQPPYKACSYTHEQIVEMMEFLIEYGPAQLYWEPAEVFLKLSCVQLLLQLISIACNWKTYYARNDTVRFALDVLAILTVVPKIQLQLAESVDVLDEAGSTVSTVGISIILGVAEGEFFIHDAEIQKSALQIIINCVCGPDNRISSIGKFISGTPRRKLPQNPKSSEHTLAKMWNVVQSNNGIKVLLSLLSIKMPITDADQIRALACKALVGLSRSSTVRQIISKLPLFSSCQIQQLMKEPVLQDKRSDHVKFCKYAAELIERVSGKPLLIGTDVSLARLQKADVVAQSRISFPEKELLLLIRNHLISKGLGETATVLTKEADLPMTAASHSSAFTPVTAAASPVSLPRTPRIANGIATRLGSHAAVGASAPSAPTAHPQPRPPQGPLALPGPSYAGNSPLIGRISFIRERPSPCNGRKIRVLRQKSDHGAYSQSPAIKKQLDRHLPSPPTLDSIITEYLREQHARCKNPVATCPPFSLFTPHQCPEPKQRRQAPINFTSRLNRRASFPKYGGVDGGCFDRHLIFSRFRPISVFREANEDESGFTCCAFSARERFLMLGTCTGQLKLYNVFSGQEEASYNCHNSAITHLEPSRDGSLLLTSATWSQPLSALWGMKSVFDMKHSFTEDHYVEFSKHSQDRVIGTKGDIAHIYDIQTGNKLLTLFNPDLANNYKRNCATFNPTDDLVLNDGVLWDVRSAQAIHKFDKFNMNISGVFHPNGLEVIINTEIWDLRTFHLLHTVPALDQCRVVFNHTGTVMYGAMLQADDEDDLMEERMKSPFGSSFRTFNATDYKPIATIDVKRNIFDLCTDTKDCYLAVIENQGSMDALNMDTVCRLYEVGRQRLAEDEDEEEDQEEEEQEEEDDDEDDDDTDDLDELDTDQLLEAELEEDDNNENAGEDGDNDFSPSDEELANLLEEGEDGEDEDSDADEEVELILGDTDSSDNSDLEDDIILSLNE
WDR5: WD repeat-containing protein 5 (WDR5, Homo sapiens, UniProt P61964)
target	temperature	SYPRO Orange fluorescence [a.u.]
DCAF1	31.8 °C	9720
DCAF1	60.41 °C	42700
DCAF1	37.2 °C	10700
WDR5	93.21 °C	47300
WDR5	67.01 °C	14000
WDR5	60.61 °C	15500
WDR5	33.8 °C	13100
WDR5	47.4 °C	15800
WDR5	60.21 °C	15600
DCAF1	94.01 °C	30600
WDR5	85.21 °C	52500

Study 3
Structure (SMILES): Cc1ncsc1-c1ccc(C(CO)NC(=O)C2CC(O)CN2C(=O)C(C(C)C)n2cc(-c3ccc(COc4c(-c5c(C)c(F)cc6[nH]ncc56)c(C5CC5)cc5c(N6CC7CC6CN7)nc(OC6CCOCC6)nc45)cc3)nn2)cc1 (centres unmarked)
Time: 6 days
cell line	observed	method	concentration	baseline	viability
PK-59	cell growth or viability	ATP luminescence	300 pM	–	98.9% and 97.8% and 112% and 105%
HPAC	cell growth or viability	ATP luminescence	10 nM	–	72.7% and 76.8% and 75.7% and 82.6%
GP5d	cell growth or viability	ATP luminescence	10 µM	–	33.3% and 30.4% and 35.5% and 29.7%
SW-403	cell growth or viability	ATP luminescence	0.3 µM	–	39.2% and 50.4% and 46.1% and 39.8%
ASPC1	cell growth or viability	ATP luminescence	0.3 µM	–	9.75% and 9.31% and 8.71% and 11.1%
A-375	cell growth or viability	ATP luminescence	30 nM	–	84% and 88.1% and 99.8% and 80.2%
ASPC1	cell growth or viability	ATP luminescence	30 nM	–	49.1% and 61.6% and 57.4% and 48.9%
AsPC-1	–	CellTiter-Glo	100 nM	DMSO	7.81% and 10.1% and 9.81%
NCI-H358	cell growth or viability	ATP luminescence	1 nM	–	96.9% and 92.7% and 98.8% and 90.2%
SK-CO-1	cell growth or viability	ATP luminescence	0.3 µM	–	29.2% and 27.8% and 27.3% and 24.5%

Study 4
Host: female CD-1 mouse
Matrix: plasma
Route: oral
Dose: 10 mg/kg
SMILES	bioavailability [%]
Cc1ccc(O)c(C)c1-c1cnc2[nH]c(-c3cnc(N4CCC(CCN5CCN(c6ccc(NC7CCC(=O)NC7=O)cc6F)CC5)CC4)nc3)cc2c1C#N (centres unmarked)	43.8
Cc1ccc(O)c(C)c1-c1cnc2[nH]c(-c3cnc(N4CC5(CC(CN6CCN(c7ccc(NC8CCC(=O)NC8=O)cc7F)CC6)C5)C4)nc3)cc2c1C#N (centres unmarked)	28.4
Cc1ccc(O)c(C)c1-c1cnc2[nH]c(-c3cnc(N4CCC(CN5CCC(c6ccc(NC7CCC(=O)NC7=O)cc6F)CC5)CC4)nc3)cc2c1C#N (centres unmarked)	34.5

For quick reference, copied from above (study 3):
cell line	observed	method	concentration	baseline	viability
NCI-H358	cell growth or viability	ATP luminescence	1 nM	–	96.9% and 92.7% and 98.8% and 90.2%
AsPC-1	–	CellTiter-Glo	100 nM	DMSO	7.81% and 10.1% and 9.81%
SW-403	cell growth or viability	ATP luminescence	0.3 µM	–	39.2% and 50.4% and 46.1% and 39.8%
